# Experimental data gathered from unrelated publications.
# Each numbered part is a random draw from the data of one study; scales do not carry over between parts.

# Series 1
# Target: PABPC1L2, full length, GST fusion (mouse, UniProt A0ABA7IW68)
# Technique: RNAcompete
# Form: RNA
# Matrix: in vitro
# Concentration: 20 nM
# Notes: 7-mer, probes averaged, single round
# Relative to: mean of 7-mers
# Reading: higher = stronger binding
# Construct (chain): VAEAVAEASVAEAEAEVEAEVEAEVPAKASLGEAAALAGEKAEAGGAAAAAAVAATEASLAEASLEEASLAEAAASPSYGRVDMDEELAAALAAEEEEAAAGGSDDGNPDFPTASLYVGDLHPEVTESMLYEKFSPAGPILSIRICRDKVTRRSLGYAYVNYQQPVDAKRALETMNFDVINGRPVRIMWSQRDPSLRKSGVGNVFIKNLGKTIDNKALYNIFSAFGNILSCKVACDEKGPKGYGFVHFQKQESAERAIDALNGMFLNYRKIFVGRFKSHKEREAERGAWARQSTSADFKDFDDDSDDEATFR
Oligonucleotide,7-mer Z-score
GCAUACA,0.142
GUUCGGC,-0.327
UAUCAUG,-0.00833
GACGCCC,-0.3
AAGGCAG,0.401
GGUUAUU,-0.184
CGCAUGC,-0.179
CCGAUAA,0.358

# Series 2
# Target: Ras GTPase-activating protein-binding protein 1, full length (G3BP1, Homo sapiens, UniProt Q13283)
# Sequence of UniProt Q13283 (whole entry, looked up): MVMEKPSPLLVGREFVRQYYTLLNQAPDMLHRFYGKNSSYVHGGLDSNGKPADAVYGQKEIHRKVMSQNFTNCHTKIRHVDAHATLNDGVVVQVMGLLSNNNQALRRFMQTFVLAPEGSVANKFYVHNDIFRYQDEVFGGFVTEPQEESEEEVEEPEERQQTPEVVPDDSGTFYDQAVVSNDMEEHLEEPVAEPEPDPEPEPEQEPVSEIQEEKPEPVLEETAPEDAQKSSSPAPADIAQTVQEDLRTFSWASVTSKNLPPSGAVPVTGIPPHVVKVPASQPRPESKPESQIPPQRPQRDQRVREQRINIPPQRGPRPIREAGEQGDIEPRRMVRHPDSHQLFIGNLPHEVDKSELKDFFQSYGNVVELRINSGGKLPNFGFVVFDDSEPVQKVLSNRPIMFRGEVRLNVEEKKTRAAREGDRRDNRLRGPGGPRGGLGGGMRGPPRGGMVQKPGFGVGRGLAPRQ
# Technique: RNA Bind-n-Seq
# Form: RNA
# Matrix: in vitro
# Concentration: 200 nM
# Notes: whole 134-nt RNA, ends assumed
# Together with: 150 mM LiCl
# Relative to: input library
# Reading: higher = stronger binding
# Library: 7-deaza-guanosine replaces G
# Constant ends, left off below: GGGAGUUCUACAGUCCGACGAUC … UGGAAUUCUCGGGUGUCAAGG
Oligonucleotide,log2 enrichment
CUGUGCUACACAUCGUAUGUACCGAAUCGGCCCCCCCGGGCCCCCCCGGGCCCCCCCGGGGAAAGUAUUAUGUUACGCCGUUCGGAUCUG,-0.209
UGGGAGGUGGAUUUUGUUUAUUUUUUUAGCUCAUUUCCAGAGGUGGGAAUUUUUUUUUAAUAUGUGUCAUGAAUAAAGUUGUUUUUGAAA,-0.666
UGGGAGGUGGAUUUUGUUUAUUUUUUUAGCUCAUUUCCAGGGGUGGGCAUUUUUUUUUAAUAUGUGUCAUGAAUAAAGUUGUUUUUGAAA,-0.469
CCUGUGCUACACAUCGUAUGUACCGAAUCGGGUUUUUGGGAAAAAAAGGGAAAAAAAGGGAAAGUAUUAUGUUACGCCGUUCGGAUCUGC,-1.01
CCUGUGCUACACAUCGUAUGUACCGAAUCGGGGAAAAAAGGAAAAAAGGGGAAAAAAGGGAAAGUAUUAUGUUACGCCGUUCGGAUCUGC,0.425
AAGUCCUGUGCUACACAUCGUAUGUACCGAAUCGGGUGGGUUUUUGGGUUUUUGGGAAAGUAUUAUGUUACGCCGUUCGGAUCUGCACUU,-0.401
UGGGAGGUGGAUUUUGUUUAUUUUUUUAGCUCAUUUCCAGGGGUGGGAGUUUUUUUUUAAUAUGUGUCAUGAAUAAAGUUGUUUUUGAAA,0.126
AGUCCUGUGCUACACAUCGUAUGUACCGAAUCGGGGAAAGGGGUGGGGUUUUUGGGGAAAGUAUUAUGUUACGCCGUUCGGAUCUGCACU,-0.229

# Series 3
# Target: Sal-like protein 4, full length isoform B (SALL4, Homo sapiens, UniProt Q9UJQ4-2, residues 1-616)
# Technique: universal PBM
# Form: double-stranded DNA, one strand shown
# Matrix: in vitro
# Concentration: not given
# Notes: 8-mer, flanks averaged, mean of replicates
# Reading: higher = stronger binding
Oligonucleotide,E-score
ATCAGGTA,0.159
CGATATCG,0.163
GGGATGAA,-0.116
AGCCTAGG,-0.131
AATTCAGT,0.059
AATCGCCG,-0.152
CTTTGAAA,0.271
CGTCCAGC,-0.137

# Single results of other studies
Sequence,target,read-out,form,concentration,quantity,result
KLDFIRNTK,"HLA class I histocompatibility antigen, A alpha chain, allele A*26:03 (Homo sapiens, UniProt P04439)",peptide-MHC binding,peptide,concentration not given,binding,inactive

# A few entries again (series 3):
Oligonucleotide,E-score
CGATATCG,0.163
